Assay results of several laboratories.
A part holds a random share of what one study measured.

Sample 1
Target: Prothrombin, mature alpha-thrombin (F2, Homo sapiens, UniProt P00734)
Technique: aptamer microarray, sandwich
Form: DNA with 2'F-ANA
Sample: in vitro
Tested at: 200 nM
Setting: whole 15-mer aptamer, many near background
With: Cy3 exosite-II aptamer, 400 nM
Reading: higher = stronger binding
Strand: GGTTGGTGTGGTTGG
`2'F-ANA at 2 4 5 8 9 11 13 14`: “mean fluorescence intensity” 46.9 a.u.
`2'F-ANA at 1 2 3 4 5 9 10 11 14`: “mean fluorescence intensity” 45.5 a.u.
`2'F-ANA at 2 3 4 7 9 12 15`: “mean fluorescence intensity” 811 a.u.
For `2'F-ANA at 3 4 5 6 8 10 11 13 15`, “mean fluorescence intensity” read 45.1 a.u.
Under “mean fluorescence intensity”, `2'F-ANA at 1 2 7 8 10 11 12 13 15` is recorded as 77.4 a.u.
Under “mean fluorescence intensity”, `2'F-ANA at 3 4 5 6 9 11 12 15` is recorded as 129 a.u.
Under “mean fluorescence intensity”, `2'F-ANA at 3 5 6 9 11 12 14` is recorded as 66.8 a.u.
`2'F-ANA at 1 3 4 5 6 7 11 12 13 15` — result for “mean fluorescence intensity”: 70.4 a.u.
For `2'F-ANA at 1 2 4 7 9 11 15`, “mean fluorescence intensity” read 97.6 a.u.
`2'F-ANA at 1 4 5 6 8 9 11 12 13 15`: “mean fluorescence intensity” 64.3 a.u.
`2'F-ANA at 2 3 4 5 7 9 10 14 15` — result for “mean fluorescence intensity”: 50.7 a.u.
For `2'F-ANA at 4 6 7 9 12 14`, “mean fluorescence intensity” read 93.6 a.u.
`2'F-ANA at 2 3 4 5 8 10 11` — result for “mean fluorescence intensity”: 75.9 a.u.
For `2'F-ANA at 2 3 6 7 11 14 15`, “mean fluorescence intensity” read 314 a.u.
`2'F-ANA at 2 3 5 6 7 10 13 14`: “mean fluorescence intensity” 44.4 a.u.
For `2'F-ANA at 3 4 7 8 12 13 14`, “mean fluorescence intensity” read 460 a.u.
`2'F-ANA at 1 4 5 6 7 9 10 14 15` — result for “mean fluorescence intensity”: 45.9 a.u.
For `2'F-ANA at 3 4 5 8 9 10 11 12 13 14 15`, “mean fluorescence intensity” read 58.8 a.u.
For `2'F-ANA at 2 6 7 9 10 12 13 15`, “mean fluorescence intensity” read 155 a.u.
`2'F-ANA at 5 8 9 10 13 15`: “mean fluorescence intensity” 67.1 a.u.
`2'F-ANA at 1 4 10 11 12 13 14` — result for “mean fluorescence intensity”: 72 a.u.
`2'F-ANA at 1 5 7 12 14 15` — result for “mean fluorescence intensity”: 51.9 a.u.
Under “mean fluorescence intensity”, `2'F-ANA at 2 3 5 7 9 10 11 12 13 15` is recorded as 64.2 a.u.
`2'F-ANA at 3 6 8 9 14`: “mean fluorescence intensity” 545 a.u.

Sample 2
Target: RNA binding protein fox-1 homolog 2, RRM domain, GST-SBP tag (RBFOX2, Homo sapiens, UniProt O43251-10, residues 100-194)
Technique: RNA Bind-n-Seq
Form: RNA
Sample: in vitro
Tested at: 365 nM
Setting: natural RNA segment, single round, ends assumed
Baseline: no-protein control
Reading: higher = stronger binding
All sequences stand within: GGGAGUUCUACAGUCCGACGAUC … UGGAAUUCUCGGGUGCCAA
Construct (chain): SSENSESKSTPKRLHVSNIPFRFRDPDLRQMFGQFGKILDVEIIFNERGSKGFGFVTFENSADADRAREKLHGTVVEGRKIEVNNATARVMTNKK
For `GACCUCGACGUUGCCUUUAGACUACAGUUGUGUUAGCCUCUUGCGUAUUGGCUUUUUCAGAGUCAUUAUGAGCAGAAAAAAAAAAAGUAAAACUUUGCUAAUAUUAACCC`, “RBNS enrichment (R)” read 0.334.
For `AUUAAUAGUUUUCAAAGGGCCAUUUUUUAAAAUCCUCUGGGCAUUUUCUUUCAGCUGUUUGUUAGUUUUUGCUUUAUUUAAAGCAUAUUUAAGUUAUUUUAAUGUGGUUU`, “RBNS enrichment (R)” read 1.31.
`AUUUGCUUAGAUGGUGUUUGUGGGAUCACCUGCAGAUUUAAAGCCUACUCUGCCACAGACUCGAGUAAGAAAAUGUUCUCUUGAUGACACAGUGCUCCUACUCUAUCCAC`: “RBNS enrichment (R)” 0.367.
`GCUUCGAAGGCGAACUUACCAAGUCUCUGCAGGACAUGGAGCUACAGUCGUUGUUUGAAUCACCCGACUUCAGCAAGAUUACUGGCAAACCCGUGAAGCUCACCCAAGUG` — result for “RBNS enrichment (R)”: 0.339.
`GGGACAAGAGGCCUGGACUGAGAUGUGAGUCCCAUGGAAGACUUCCUCUCCACCCCCCACAUCGGUCCUCUCAAAUACCCAAUGGGAUUCCAGCUUGAAGGAUUGCAUCC`: “RBNS enrichment (R)” 0.763.
For `GAAGUCCAACUCAAGUCGGAGAGAGAGUGGAGCCUCUGCACUUGGGGAGUAGGUCAGUGUCAACUAACAAGCCCUGCCAGGGGCCACUGCCGCUCCUCUGGUCACAGUCC`, “RBNS enrichment (R)” read 0.231.
`AUACAUGCCACCACACAAAGACAUACACAUAUGCACAUAAUUAAAAACUAAAAAUGAAUCAUAAAAAACAAAUGGGUACAUGAUAUGGUAAGAUAAAUGAGGGGGAAAAA` — result for “RBNS enrichment (R)”: 0.727.
Under “RBNS enrichment (R)”, `GCAGGCUCUCCUGUCACCCCGCAUCACCUCACCCUUCUCUGUCCCUCAGCCUUCAGUCACAUUUAGUCAUGGUCUGCCUGUGAGCGCAGUGAGUUCUCUCCUGACAGCUG` is recorded as 1.08.
For `UUUAAAAUGCCUAACUUCUUAGGUACACAAACCCAUGGCUUUGUGUACUAGAACCAGAGCAAUCCACUGAUUCAUAUUGGAUCCCAAGUAUACCUCCUGCUGGUAUCAGG`, “RBNS enrichment (R)” read 0.225.
For `UUGGAAUAGCCCUGUCUAGGGCAAACUGUGGCCCCCAGGAGACACUACCCUUCCAUGCCCCAGACCUCUGUCUUGCAUGUGACAAUUGACAAUCUGGACUACCCCAAGAU`, “RBNS enrichment (R)” read 15.2.
`GAGCCUCAGCACUGUCUGACUUUGGGAACCAGGGAUCCCACAGAAAUGUUUUGGAGAGCGGGAGGUUUCCCCCAAUCUCCUCCAAGUUCUUCUCCCUCCAACCAGAGUUG` — result for “RBNS enrichment (R)”: 0.344.
For `CAGGGGGCAGAAGGCACAACCAUUUCCAUGGUGUGCCGAGAGAAGGAGCUGAGGUCAGCAAGCCAGUGGUUCUUAAGAGCUGAACCUCUGGCUUUACUGUUGGAAGUUGU`, “RBNS enrichment (R)” read 0.522.

Sample 3
Target: Sal-like protein 4, full length isoform B (SALL4, Homo sapiens, UniProt Q9UJQ4-2, residues 1-616)
Technique: universal PBM
Form: double-stranded DNA, one strand shown
Sample: in vitro
Tested at: not given
Setting: 8-mer, flanks averaged, mean of replicates
Reading: higher = stronger binding
Residues (chain): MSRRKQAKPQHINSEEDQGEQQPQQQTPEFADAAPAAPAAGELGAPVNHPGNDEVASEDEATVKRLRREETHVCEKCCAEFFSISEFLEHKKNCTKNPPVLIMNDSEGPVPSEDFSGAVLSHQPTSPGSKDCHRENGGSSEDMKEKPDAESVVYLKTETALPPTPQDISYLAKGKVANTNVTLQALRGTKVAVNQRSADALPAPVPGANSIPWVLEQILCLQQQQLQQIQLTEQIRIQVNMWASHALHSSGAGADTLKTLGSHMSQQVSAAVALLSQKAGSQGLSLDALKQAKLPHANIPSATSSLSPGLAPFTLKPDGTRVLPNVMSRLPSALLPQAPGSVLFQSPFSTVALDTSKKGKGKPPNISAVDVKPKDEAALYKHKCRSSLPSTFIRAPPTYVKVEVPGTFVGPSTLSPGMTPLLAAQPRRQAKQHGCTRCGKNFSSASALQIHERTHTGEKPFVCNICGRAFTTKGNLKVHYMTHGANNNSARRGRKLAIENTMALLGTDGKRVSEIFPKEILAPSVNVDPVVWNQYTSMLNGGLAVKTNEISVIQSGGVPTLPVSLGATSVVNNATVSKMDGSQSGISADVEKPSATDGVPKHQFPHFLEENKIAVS
The E-score of `GACCCTGA` is reported as -0.258.
The E-score of `CAGACATC` is reported as 0.0591.
The E-score of `GACGCCAA` is reported as -0.111.
The E-score of `ACAATTTC` is reported as 0.247.
For `AACACGAC`, the E-score was 0.0344.
`CGCTGCGA` gave an E-score of -0.168.
For `GCATCGAC`, the E-score was -0.199.
For `CTGACTAA`, the E-score was 0.0826.
For `ACAAAAGT`, the E-score was 0.129.
`CAGGTCTC` has an E-score of -0.229.
With `CGTCGGAC` the E-score was -0.229.
`AGGCTTGA` has an E-score of -0.0391.
With `GATTTGCC` the E-score was -0.118.
With `ATTCTCCG` the E-score was -0.0626.
The E-score of `GGCCTATA` is reported as -0.0232.
The E-score of `AAAGGTAG` is reported as 0.0953.
With `TACTCGAA` the E-score was 0.193.
For `GACGGCCC`, the E-score was -0.408.
The E-score of `ATATGAAA` is reported as 0.431.
For `ATTAATCC`, the E-score was 0.303.
`AAGGCCTG` has an E-score of -0.126.
`ACCTAAGC` gave an E-score of -0.124.
`ACGATAGC` gave an E-score of 0.0644.
`CTAACGAG` has an E-score of -0.0254.
`GAGCCGGA` gave an E-score of -0.143.

Sample 4
Target: Fragile X messenger ribonucleoprotein 1, C-terminal low-complexity region (Fmr1, Mus musculus, UniProt P35922)
Technique: RNA Bind-n-Seq
Form: RNA
Sample: in vitro
Tested at: 200 nM
Setting: whole 134-nt RNA, ends assumed
With: 150 mM KCl
Baseline: input library
Reading: higher = stronger binding
All sequences stand within: GGGAGUUCUACAGUCCGACGAUC … UGGAAUUCUCGGGUGUCAAGG
For `CACAGACAACACGCACCCACACAGACACAGAGGGAAGGGGUUGGGAUGGGGACAGGGUGCACAGCAGGGCGGGUUAGGACCCCAGCCCCU`, the log2 enrichment was 1.33.
`UAACUUUAGAGGAGGAUCUGAUGGAUAUGGCAGUGGACGUGGAUGUGGGGAUGGCUAUAAUGGGUAUGGAGGAGGACCUGGAGGUGGCAA` has a log2 enrichment of 0.287.
`GCAGGAACUAAAAACAAAUGGAAAUGCUUCGGAUAGUGGCAGGGGUGGGGGUUGCUAAGGAAAGGGUGGGAUGGGAGUGGGUAAAGAGUU` has a log2 enrichment of 0.559.
`CUGUGCUACACAUCGUAUGUACCGAAUCGGGGAAAAAAAGGAAAAAAAGGGGAAAAAAAGGAAAGUAUUAUGUUACGCCGUUCGGAUCUG` gave a log2 enrichment of -0.761.
`UGGAUCUUGGAGGGACCAACUUCCGUGUGCUUUGGGUGAAAGUAACGGACAAUGGGCUCCAGAAGGUGGAGAUGGAGAAUCAGAUCUAUG` has a log2 enrichment of -1.48.
`CCUGUGCUACACAUCGUAUGUACCGAAUCAAAUUUUUAAACCCCCCCAAACCCCCCCAAAAAAGUAUUAUGUUACGCCGUUCGGAUCUGC` gave a log2 enrichment of -0.075.
`CCUGUGCUACACAUCGUAUGUACCGAAUCGGGGAAAAAGGGGUUUGGGGAAAAAAAGGGGAAAGUAUUAUGUUACGCCGUUCGGAUCUGC` has a log2 enrichment of 0.0514.
With `CACAGACAACACGCACCCACACAGACACAGAGGGAAGGGGUUGGGUUGGGGACAGGGUGCACAGCAGGGCGGGGUAGGACCCCAGCCCCU` the log2 enrichment was 1.37.
`UGGGAGGUGGAUUUUGUUUAUUUUUUUAGCUCAUUUCCAGGGGUGGGAAUUUAUUUUUAAUAUGUGUCAUGAAUAAAGUUGUUUUUGAAA` has a log2 enrichment of 0.273.
`UUCACUCUUUGAAGGAACGUGGUACUUAGUUAGGGUGGAUGAAAAGCACAGAAGAACUUACGCUCGGCGUCCCACUCCAAAUGAUGACAC` gave a log2 enrichment of 0.47.
`AGUCCUGUGCUACACAUCGUAUGUACCGAAUCGGGAAAAGGGGAAAAGGGAAAAGGGAAAGUAUUAUGUUACGCCGUUCGGAUCUGCACU` has a log2 enrichment of 0.142.
For `UAACUUUAGAGGAGGAUCUGAUGGAUAUGGCAGUGGACGUGGAUUUGUGGAUGGCUAUAAUGGGUAUGGAGGAGGACCUGGAGGUGGCAA`, the log2 enrichment was 0.397.
For `ACCAUGCAGGUGGGCAUCUUUGGGAAGUGGGGCAAGGGGGGGAUAGGGGGGGGGGUAACACUUUGGGAACAGGUGGUCCCAGGUCGUUUC`, the log2 enrichment was 1.08.
With `UCCUGUGCUACACAUCGUAUGUACCGAAUCGGGGUUUUUGGGGAAAAAAAGGGGUGGGGAAAGUAUUAUGUUACGCCGUUCGGAUCUGCA` the log2 enrichment was 0.831.
